Assay results collected from several papers.
Lines come from different studies, so protocols differ. Several values in a cell are separate wells, animals, samples, runs or records. ± marks the error that the study gave.
YAP1 WW2 domain: Transcriptional coactivator YAP1, WW2 domain (YAP1, Homo sapiens, UniProt P46937)
Kelch domain-containing protein 2: Kelch domain-containing protein 2 (UniProt Q9Y2U9)
KCNT1: Potassium channel subfamily T member 1 (KCNT1, Homo sapiens, UniProt Q5JUK3)
CFTR del508-508: Cystic fibrosis transmembrane conductance regulator (CFTR, Homo sapiens, UniProt P13569, del508-508)
Calm1: Calmodulin-1 (Calm1, Rattus norvegicus, UniProt P0DP29)
ERAP1 V737R: Endoplasmic reticulum aminopeptidase 1 (ERAP1, Homo sapiens, UniProt Q9NZ08, V737R)

Molecule	target	assay	test system	conditions	how to read	measurement	result
Nc1ccc(CNC(=O)CN2C(=O)C3C4CCC(C4)C3C2=O)cc1 (centres unmarked)	PPIF (Homo sapiens, UniProt P30405, K175I)	binding, surface plasmon resonance			relative to: fragment Kd over compound Kd	potency gain	> 1000 fold
CC(=O)C(C)=NO	integrin alphaM beta2 (human)	ligand binding, inhibitor, flow cytometry	human neutrophils	concentration not given, 1 h, 37 °C, integrin clustering inhibitor, together with: Alexa 488-labelled plasminogen	relative to: no inhibitor, lower means less binding	bound plasminogen fluorescence	232 ± 30 MFI
N[C@@H](Cc1cnc[nH]1)C(=O)O	HARS1 (Homo sapiens, UniProt P12081, R362H)	thermal stability, DSF				ΔTm	6.3 °C
CC(C)C[C@H](NC(=O)[C@@H](NC(=O)[C@@H](N)[C@@H](C)O)C(C)C)C(=O)N1CCC[C@H]1C(=O)N1CCC[C@H]1C(=O)N1CCC[C@H]1C(=O)N1CCC[C@H]1C(=O)N[C@@H](Cc1ccc(O)cc1)C(=O)N[C@@H](CCCNC(=N)N)C(=O)N[C@@H](Cc1c[nH]cn1)C(=O)N[C@@H](CCCNC(=N)N)C(=O)N[C@@H](CC(N)=O)C(=O)O	YAP1 WW2 domain	binding, ITC		pH 7.0, 25 °C, WW2 domain		ΔG	-5.81 ± 0.04 kcal/mol
Nc1ccc(-c2nc([C@H]3CCc4cc(-c5cc(Cl)ccc5-n5cnnn5)cc(=O)n43)c(F)[nH]2)c(F)n1	F11 (Homo sapiens, UniProt P03951)		human, blood	oral, 150 mg once daily, fed, day 14, 24 h		FXI activity inhibition	73 ± 9.6%
EVIVFGG	Kelch domain-containing protein 2	native mass spectrometry	peptide, 200 mM ammonium acetate	20 µM Kelch domain-containing protein 2, pH 7	relative to: total Kelch domain-containing protein 2 signal	fraction of protein bound	1.5%
O=C(O)c1ccccc1O	Degenerin mec-4 (mec-4, Caenorhabditis elegans, UniProt P24612, A713T)	ion current, two-electrode voltage clamp	Xenopus oocytes coexpressing MEC-2	30 µM, -85 mV	relative to: uninjected oocytes, positive inhibition, negative potentiation	current change	-5.39 µA
CCOc1ccccc1S(=O)(=O)N1CC(c2nc(-c3ccccn3)no2)C1	KCNT1	Tl+ flux, inhibitor	HEK293 expressing KCNT1	30 µM		activity class	inactive
Oc1ccc(/C=C/c2ccccc2)cc1O	Transthyretin, fibrils (TTR, Homo sapiens, UniProt P02766)	binding, fluorescence emission		1 µM, pH 3.0, together with: 5 µM fibrils (monomer)	relative to: free compound	fluorescence increase	1.7 fold
GHDTSFYWAAYKKKK	NEK2 (Homo sapiens, UniProt P51955, T175A)	substrate	peptide	Km of kinase, 1 h, 30 °C	relative to: optimal peptide	phosphorylation	~8%
EKGGGSGGG	Kelch domain-containing protein 2	native mass spectrometry	peptide, 200 mM ammonium acetate	20 µM Kelch domain-containing protein 2, pH 7	relative to: total Kelch domain-containing protein 2 signal	fraction of protein bound	19.5%
Cc1cccnc1Nc1nc2c(s1)CCCCc1nc(NC(=O)C(C)(C)C)sc1-2	CFTR del508-508	iodide influx, corrector, YFP halide quenching	FRT cells expressing YFP-H148Q/I152L	16 to 20 h, 37 °C, genistein 50 µM, together with: forskolin 20 µM		Vmax	280 µM/s
CCCCc1nc(Cl)c(CO)n1Cc1ccc(-c2ccccc2-c2nn[nH]n2)cc1	AGTR1 (Homo sapiens, UniProt P30556)	antagonist, PathHunter β-arrestin	CHO cells transfected with receptor	10 µM, together with: post-immune serum 1:100	relative to: buffer baseline	β-arrestin recruitment	158 ± 15%
IKPAKRMKFKTVCYLLVQLMHCRKMFKA	Calm1	Ca2+ dissociation, stopped-flow quin-2 fluorescence	peptide	2 µM, pH 7.4, 22 °C, together with: Ca2+-calmodulin complex		koff1	7.98 s⁻¹ and 8 s⁻¹
C/C=C1/C[N+]2(C)CC[C@@]34C[C@H]5[C@@H]6C[C@H]7c8c(c9ccccc9n8C)C[C@@H]([C@@H]6CO[C@@]5(C)O[C@@]35[C@@H]2C[C@@H]1[C@@H](C(=O)OC)N5c1ccccc14)N7C.[Cl-] (some centres unmarked)	RELA (Homo sapiens, UniProt Q04206)	DNA binding, inhibitor, ELISA	HeLa nuclear extract			ED50	> 20 µM
CCOc1ccccc1S(=O)(=O)N1CC(c2nc(-c3nccs3)no2)C1	KCNT1	Tl+ flux, inhibitor	HEK293 expressing KCNT1	30 µM		activity class	inactive

Molecule	target	assay	test system	conditions	how to read	measurement	result
GSRPQRLLWQTAVRHITEQRFIHGH	Calm1	N-lobe Ca2+ dissociation, stopped-flow with quin-2	peptide	22 °C		Ca2+ dissociation rate constant	> 500 s⁻¹
CCOc1ccccc1S(=O)(=O)N1CC(c2nc(-c3ccc(F)cn3)no2)C1	KCNT1	Tl+ flux, inhibitor	HEK293 expressing KCNT1	30 µM		activity class	inactive
Nc1ncnc2c1ncn2[C@@H]1O[C@H](COP(=O)(O)OP(=O)(O)O)[C@@H](O)[C@H]1O	ATP1A1 (Sus scrofa, UniProt P05024)	binding, radioligand binding	membrane-bound enzyme	together with: NaCl 19 mM		Bmax	1.17 ± 0.02 µM
CC(C)[C@H](NC(=O)[C@@H](N)[C@@H](C)O)C(=O)N[C@@H](C)C(=O)N1CCC[C@H]1C(=O)N1CCC[C@H]1C(=O)N1CCC[C@H]1C(=O)N1CCC[C@H]1C(=O)N[C@@H](Cc1ccc(O)cc1)C(=O)N[C@@H](CCCNC(=N)N)C(=O)N[C@@H](Cc1c[nH]cn1)C(=O)N[C@@H](CCCNC(=N)N)C(=O)N[C@@H](CC(N)=O)C(=O)O	YAP1 WW2 domain	binding, ITC		pH 7.0, 25 °C, WW2 domain		ΔG	-5.58 ± 0.12 kcal/mol
CC(=O)Oc1c(C)occc1=O	porcine liver esterase	conversion		50 µM, pH 7.5, room temperature, together with: PLE 0.178 U		kobs	9 s⁻¹
IINFEKL	ERAP1 V737R	substrate	peptide	pH 8.0, 27 °C, mutant V737R, together with: L-AMC, peptide activator 100 µM		K1/2 of L-AMC	0.34 ± 0.14 mM
CCCCOc1ccccc1S(=O)(=O)N1CC(c2nc(-c3ccsc3)no2)C1	KCNT1	Tl+ flux, inhibitor	HEK293 expressing KCNT1	30 µM		activity class	inactive
Nc1ncnc2c1ncn2[C@@H]1O[C@H](COP(=O)(O)OP(=O)(O)OP(=O)(O)O)[C@@H](O)[C@H]1O	HARS1 (Homo sapiens, UniProt P12081, V155G)	thermal stability, DSF				ΔTm	3.04 °C
CC[C@H](C)[C@H](NC(=O)[C@@H]1CCCN1C(=O)[C@@H]1CCCN1C(=O)[C@@H]1CCCN1C(=O)[C@@H](NC(=O)[C@H](CC(N)=O)NC(=O)[C@@H](N)Cc1ccccc1)[C@@H](C)CC)C(=O)N[C@@H](Cc1ccc(O)cc1)C(=O)N[C@H](C(=O)N[C@@H](CO)C(=O)N[C@@H](CCCNC(=N)N)C(=O)N[C@@H](C)C(=O)O)[C@@H](C)O	YAP1 WW2 domain	binding, ITC		pH 7.0, 25 °C, WW2 domain		TΔS	1.57 ± 0.55 kcal/mol
IINFEKE	ERAP1 V737R	L-AMC hydrolysis, activator	peptide	100 µM, 5 min, pH 8.0, 27 °C, mutant V737R, together with: L-AMC varied from 0 µM		Vmax	141 ± 1 nmol/min/µg
CC(C)C[C@H](NC(=O)[C@@H](NC(=O)[C@@H](N)[C@@H](C)O)C(C)C)C(=O)N1CCC[C@H]1C(=O)N1CCC[C@H]1C(=O)N1CCC[C@H]1C(=O)N1CCC[C@H]1C(=O)N[C@@H](Cc1ccc(O)cc1)C(=O)N[C@@H](C)C(=O)N[C@@H](Cc1c[nH]cn1)C(=O)N[C@@H](CCCNC(=N)N)C(=O)N[C@@H](CC(N)=O)C(=O)O	YAP1 WW2 domain	binding, ITC		pH 7.0, 25 °C, WW2 domain		ΔG	-5.49 ± 0.06 kcal/mol
NC(=O)NO	Ribonucleoside-diphosphate reductase subunit beta (nrdB, Chlamydia trachomatis serovar D, UniProt O84835)	Mn(IV)/Fe(III) cofactor reduction, stopped-flow absorption		22 °C, free beta2 subunit without alpha2		second-order rate constant	0.009 ± 0.002 M⁻¹ s⁻¹
O=c1c(-c2ccc(O)cc2)coc2cc(O)cc(O)c12	CNGA1 (Bos taurus, UniProt Q00194)	cGMP-activated current, inside-out patch clamp	Xenopus oocytes	together with: saturating cGMP		time constant of current suppression	7.3 s
Brc1ccccc1SSc1ccccc1Br	tubulin	colchicine binding, [3H]colchicine binding		50 µM, 10 min, 37 °C, together with: [3H]colchicine 5.0 µM		inhibition	34 ± 4%
COc1cccc(C(=O)NCCNc2nc3cc(C)cc(C)c3cc2C#N)c1	CFTR del508-508	CFTR correction, corrector, iodide influx rate	FRT expressing YFP-H148Q/I152L	up to 25 µM, 16-20 h, 37 °C, together with: forskolin 20 µM, genistein 50 µM		Vmax	300 µM/s
CC(C)C[C@H](NC(=O)[C@@H](NC(=O)[C@@H](N)[C@@H](C)O)C(C)C)C(=O)N[C@@H](C)C(=O)N1CCC[C@H]1C(=O)N1CCC[C@H]1C(=O)N1CCC[C@H]1C(=O)N[C@@H](Cc1ccc(O)cc1)C(=O)N[C@@H](CCCNC(=N)N)C(=O)N[C@@H](Cc1c[nH]cn1)C(=O)N[C@@H](CCCNC(=N)N)C(=O)N[C@@H](CC(N)=O)C(=O)O	YAP1 WW2 domain	binding, ITC		pH 7.0, 25 °C, WW2 domain		ΔH	-10.7 ± 0.28 kcal/mol

A few entries again:
Molecule	target	assay	test system	conditions	how to read	measurement	result
IKPAKRMKFKTVCYLLVQLMHCRKMFKA	Calm1	Ca2+ dissociation, stopped-flow quin-2 fluorescence	peptide	2 µM, pH 7.4, 22 °C, together with: Ca2+-calmodulin complex		koff1	7.98 s⁻¹ and 8 s⁻¹
CCOc1ccccc1S(=O)(=O)N1CC(c2nc(-c3ccc(F)cn3)no2)C1	KCNT1	Tl+ flux, inhibitor	HEK293 expressing KCNT1	30 µM		activity class	inactive
Oc1ccc(/C=C/c2ccccc2)cc1O	Transthyretin, fibrils (TTR, Homo sapiens, UniProt P02766)	binding, fluorescence emission		1 µM, pH 3.0, together with: 5 µM fibrils (monomer)	relative to: free compound	fluorescence increase	1.7 fold
C/C=C1/C[N+]2(C)CC[C@@]34C[C@H]5[C@@H]6C[C@H]7c8c(c9ccccc9n8C)C[C@@H]([C@@H]6CO[C@@]5(C)O[C@@]35[C@@H]2C[C@@H]1[C@@H](C(=O)OC)N5c1ccccc14)N7C.[Cl-] (some centres unmarked)	RELA (Homo sapiens, UniProt Q04206)	DNA binding, inhibitor, ELISA	HeLa nuclear extract			ED50	> 20 µM
